# Assay results of several laboratories.
# Each line is one published result; not all experiments were run side by side. Values joined by “and” are separate records of one study, mostly repeats; a detail may differ. Numbers after ± are the reported error.
SMILES,cell line,assay,system,setting,scale,measurement,result
CCCCc1nc(Cl)c(CO)n1Cc1ccc(-c2ccccc2-c2nn[nH]n2)cc1,human PBMC,"RNA-seq, measured: ITGB8 mRNA",,"10 µg/mL, 24 h",relative to: untreated control,log2 fold change,2.48
Nc1ncn([C@H]2C[C@H](O)[C@@H](CO)O2)c(=O)n1,OCI-Ly1,,,"0.5 µM, 120 h",,viability,24.7%
CC(C)NCCCn1c(Sc2cc3c(cc2I)OCO3)nc2c(N)ncnc21,iPSC-derived cardiomyocytes,concentration-response fit,,concentration not given,relative to: vehicle,fitted bottom MyBP-C level,18.6%
C[C@H]1[C@H](C)CC[C@]2(C)CC[C@]3(C)C(=CC(=O)[C@@H]4[C@@]5(C)CC[C@@H](O)[C@](C)(C(=O)NCc6cn(-c7cccc(Br)c7)nn6)[C@@H]5CC[C@]43C)[C@H]12,human PBMCs,flow cytometry,,5 µM,relative to: CD8+ T cells,PD-1 positive cells,22.1%
CN(C)c1ccc2nc3ccc(=[N+](C)C)cc-3sc2c1,mouse CA1 pyramidal neurons,patch clamp,hippocampal slices,10 µM,,mIPSC frequency,decreased
Cc1nc2cc(NCc3ccc(C(F)(F)F)cc3)ccc2s1,sample A patient iPSC-derived NPCs,MTS,,"10 µM, 24 h",relative to: vehicle,viability,101 ± 1.51%
COc1cnc2cccc(N3CCc4c(cc(Cn5ccnc5C)cc4-c4cn(C)nc4C(F)(F)F)C3=O)c2c1,NCI-H292,"cell growth, inhibitor",,120 h,,EC50,> 30 µM
[Cl-].[Cl-].[Ru+2].c1cnc2c(c1)ccc1cccnc12.c1cnc2c(c1)ccc1cccnc12.c1csc(-c2ccc(-c3ccc(-c4nc5c6cccnc6c6ncccc6c5[nH]4)s3)s2)c1,SK-MEL-28,,,"normoxia, added: visible light",,phototherapeutic index,1600
CCc1cnc(N2CCC(c3nc(COc4ccc(-n5cnnn5)cc4)cs3)CC2)nc1,HEK-293T,"RNA-seq GSEA, measured: HALLMARK_NOTCH_SIGNALING",,concentration not given,direction not given,normalized enrichment score,-1.28
Cc1nc(NC(=O)N2CCC[C@H]2C(N)=O)sc1-c1ccnc(C(C)(C)C(F)(F)F)c1,KPL4,CellTiter-Glo,,120 h,,Hill coefficient GR curve,1.41
O=C(/C=C/C=C/C=C/C1CCCCC1)NC1=C[C@@](O)(/C=C/C=C/C=C/C(=O)NC2=C(O)CCC2=O)[C@@H]2O[C@@H]2C1=O,CAL-33,"cell growth, CellTiter-Glo",,78 h,,GI50,10.5 µM
CCCCN1C[C@H](O)[C@@H](O)[C@@H](O)[C@H]1CO,sample BB patient fibroblasts,"GlcCer level lowering, LC-MS/MS, measured: GlcCer d18:1/24:1",,216 h,,IC50,34.7 µM
Nc1ncnc2c1ncn2[C@@H]1C=C(CO)[C@@H](O)[C@H]1O,OCI-Ly1,,,"0.1 µM, 120 h",,viability,9.73%
O=C(C[C@@H](C(F)F)n1ccc(F)n1)N1CCC(O)(Cn2cnc3c(cnn3-c3ccc(F)cc3)c2=O)CC1,CHP-212 resistant,PI staining flow cytometry,,"1 µM, 24 h",,cells in S phase,12.4% and 10.8% and 13.4%
CCn1cc(-c2cc(Cn3ccoc3=N)cc3c2CCN([C@@H](C)c2cc(OC)ccn2)C3=O)c(C(F)(F)F)n1,KG-1,"cell growth, inhibitor",,120 h,,EC50,0.457 µM
FC(F)(F)Oc1ccc(CNc2ccc3cc[nH]c3c2)cc1,sample A patient iPSC-derived NPCs,MTS,,"10 µM, 24 h",relative to: vehicle,viability,98.2 ± 1.45%
CCCN1CCN(c2ccc3[nH]c(-c4ccc5[nH]c(-c6ccc(OCC)c(OCC)c6)nc5c4)nc3c2)CC1,786-0,"cell growth, NCI-60 SRB",,"10 µM, 48 h",,growth percent,-89%
COc1cc2c(NC3CCN(CC4CCCCC4)CC3)nc(N3CCCN(C(C)C)CC3)nc2cc1OCCCN1CCCCC1,OCI-Ly1,,,"0.5 µM, 120 h",,viability,91.5%
C#C[C@@]1(O)[C@@H](CO)O[C@@H](n2ccc3c(N)ncnc32)[C@@H]1O,786-0,"cell growth, SRB",,,,TGI,6.15 µM
O=C(COc1cccc2c1C(=O)N(C1CCC(=O)NC1=O)C2=O)NCCOCCOCCNS(=O)(=O)Nc1cccc(-c2cn3cc(C(=O)NC4CCC4)ccc3n2)c1 (stereo not shown),MV4-11,"TMT proteomics, measured: NAA38 protein",,"10 µM, 16 h",relative to: DMSO,log2 fold change,0.014
COc1cc(/C=C/C(=O)N2CCC=CC2=O)cc(OC)c1OC,MDA-MB-468,"quantitative RT-PCR, measured: GGT5",,"30 µM, 8 h",relative to: untreated cells,mRNA level,129 ± 18.3%
Cn1cc(-c2ccc(-c3cncc(Cl)c3N3CCC4(CCNC4=O)CC3)cc2)cn1,COLO 205,"gene expression, microarray, measured: ASS1 mRNA",,"concentration not given, 6 h",relative to: untreated cells,log2 fold change,3.22
C=CC(=O)N1[C@@H](c2ccc3c(c2)OCO3)c2[nH]c3ccccc3c2C[C@H]1C(=O)NC,rat DRG neurons,,,"0.004572 µM, 48 h, added: vincristine 40 nM",,mean neuron degeneration,90%
CCn1cc(-c2cc(Cn3ccnc3)cc3c2CCN([C@H](c2cc(OC)ccn2)C2CC2)C3=O)c(C(F)(F)F)n1,HCC1954,"cell growth, inhibitor",,120 h,,EC50,3.31 µM
C=Cc1c2[n-]c(c1C)/C=c1\[n-]/c(c(C)c1C=C)=C\c1[n-]c(c(CCC(=O)O)c1C)/C=c1\[n-]c(c(C)c1CCC(=O)O)=C2.[Sn+4],SH-SY5Y,"RNA-seq, measured: CEBPD mRNA",,"5 µM, 5 h",relative to: untreated cells,fold change,3.61
NC(=O)c1cccnc1,OCI-Ly1,,,"0.1 µM, 120 h",,viability,193%
CC(=O)Nc1cccc(-n2c(=O)n(C3CC3)c(=O)c3c(Nc4ccc(I)cc4F)n(C)c(=O)c(C)c32)c1,COLO 205 (BRAF V600E),,,50.00 nM,relative to: DMSO,fractional effect,93%
CCC(=O)N1CCOc2c(cc(-c3ccc(OC)c(OC)c3)cc2OC[C@H]2CCCN(C)C2)C1,OCI-Ly1,,,"0.1 µM, 120 h",,viability,135%
CCN(CC)CCCC(C)Nc1ccnc2cc(Cl)ccc12 (stereo not shown),hiPSC-derived ventricular cardiomyocytes,"action potential, current clamp, externally paced",,5 µM,,maximal upstroke velocity,19.8 mV/ms and 23.1 mV/ms and 13.2 mV/ms and 23.4 mV/ms
Cc1cc(Nc2ncc(Cl)c(Nc3ccccc3S(=O)(=O)C(C)C)n2)c(OC(C)C)cc1C1CCNCC1,CLB-GE,"phosphoproteomics LC-MS/MS, measured: BICD2 phosphorylation",,"200 nM, 60 min",relative to: untreated,log2 fold change,-1.74
CCn1c2ccc(CNCCOCCOCCOCCC(=O)NCCOc3ccc(CCc4nc5cc(-c6c(C)noc6C)ccc5n4CCN4CCOCC4)cc3F)cc2c2ccc(-c3cc(C)cs3)cc21,U2OS p53 wild type,cell viability,,"10 µM, 72 h, highest concentration tested",,inhibition,30 to 40%
COc1cc2c(cc1-c1c(C)noc1C)ncc1[nH]c(=O)n([C@H](C)c3ccccn3)c12,OCI-Ly1,,,"0.1 µM, 120 h",,viability,130%
CCn1c(=O)/c(=C2\Sc3cc(Cl)ccc3N2C)s/c1=C\c1scc[n+]1Cc1ccccc1.[Cl-],iPSC-derived cardiomyocytes,initial hit retest,,"concentration not given, 24 h, plate-normalised",,MyBP-C protein level,15%
O=C(O)c1ccc(C(=O)O)cc1,human cells,"reporter gene, agonist, luciferase reporter",,,relative to: positive control,Emax,12.4%
C#CCCC1(CCC(=O)N2[C@H](c3ccc4c(c3)OCO4)c3[nH]c4ccccc4c3C[C@@H]2C(=O)N2CCOCC2)N=N1,HeLa stably expressing GFP-LC3,,,"concentration not given, 4 h",,LC3 puncta formation,inactive
C=CCNC1=C2C[C@@H](C)C[C@H](OC)[C@H](O)[C@@H](C)/C=C(\C)[C@H](OC(N)=O)[C@@H](OC)/C=C\C=C(/C)C(=O)NC(=CC1=O)C2=O,iPSC-derived cardiomyocytes,initial hit retest,,"concentration not given, 24 h, plate-normalised",,MyBP-C protein level,30%
CC(C)(C)OC(=O)CN(Cc1ccc(Cl)cc1)Cc1ccc([N+](=O)[O-])s1,OCI-Ly1,,,"1 µM, 120 h",,viability,104%
CCCCCCCCCc1ccc(OCCOCCOCCOCCOCCOCCOCCOCCOCCO)cc1,iPSC-derived cardiomyocytes,"concentration-response curve, measured: MyBP-C/MYH ratio",,24 h,,EC50,24.4 µM
COc1ccc(NC(=S)N/N=C/c2cccc3cc4ccccc4nc23)cc1,HeLa,PI flow cytometry,,"IC50, 48 h",,G2/M phase cells,12.5 ± 2.8%
CCN(CC)Cc1ccc2cc(COC(=O)Nc3ccc(C(=O)NO)cc3)ccc2c1,OCI-Ly1,,,"0.5 µM, 120 h",,viability,4.12%
Cc1cccc(-c2[nH]c(CNc3ccccc3F)nc2-c2ccc3ncnn3c2)n1,pomalidomide-resistant MM1.S cells,XTT,,1 µM,higher = more viable cells,XTT absorbance,3.3 E-1 and 3.2 E-1 and 5.3 E-1
Nc1ncnc2c1ncn2[C@@H]1O[C@H](CO)[C@@H](O)[C@H]1O,activated human T cells,measured: ATP,,10 µM,relative to: DMSO,log2 fold change,0.6 and 1
COc1cc2ncnc(Nc3ccc(Oc4ccccc4)cc3C)c2cc1OC.O=C(O)C(F)(F)F,COLO 205 (BRAF V600E),resazurin,,"concentration not given, 72 h, added: trametinib",direction not given,Bliss synergy score,-54.3%

# For quick reference, copied from above:
SMILES,cell line,assay,system,setting,scale,measurement,result
Cc1nc(NC(=O)N2CCC[C@H]2C(N)=O)sc1-c1ccnc(C(C)(C)C(F)(F)F)c1,KPL4,CellTiter-Glo,,120 h,,Hill coefficient GR curve,1.41
O=C(/C=C/C=C/C=C/C1CCCCC1)NC1=C[C@@](O)(/C=C/C=C/C=C/C(=O)NC2=C(O)CCC2=O)[C@@H]2O[C@@H]2C1=O,CAL-33,"cell growth, CellTiter-Glo",,78 h,,GI50,10.5 µM
CCCCN1C[C@H](O)[C@@H](O)[C@@H](O)[C@H]1CO,sample BB patient fibroblasts,"GlcCer level lowering, LC-MS/MS, measured: GlcCer d18:1/24:1",,216 h,,IC50,34.7 µM
Nc1ncnc2c1ncn2[C@@H]1C=C(CO)[C@@H](O)[C@H]1O,OCI-Ly1,,,"0.1 µM, 120 h",,viability,9.73%
O=C(C[C@@H](C(F)F)n1ccc(F)n1)N1CCC(O)(Cn2cnc3c(cnn3-c3ccc(F)cc3)c2=O)CC1,CHP-212 resistant,PI staining flow cytometry,,"1 µM, 24 h",,cells in S phase,12.4% and 10.8% and 13.4%
CCn1cc(-c2cc(Cn3ccoc3=N)cc3c2CCN([C@@H](C)c2cc(OC)ccn2)C3=O)c(C(F)(F)F)n1,KG-1,"cell growth, inhibitor",,120 h,,EC50,0.457 µM
